Experimental data of several laboratories.
Protocols differ between the studies behind these lines. ± gives the spread as reported. Converted amounts (≈) assume the structure as drawn.
MAL12: Alpha-glucosidase MAL12 (MAL12, Saccharomyces cerevisiae S288c, UniProt P53341)
Sequence of UniProt P53341 (whole entry, looked up): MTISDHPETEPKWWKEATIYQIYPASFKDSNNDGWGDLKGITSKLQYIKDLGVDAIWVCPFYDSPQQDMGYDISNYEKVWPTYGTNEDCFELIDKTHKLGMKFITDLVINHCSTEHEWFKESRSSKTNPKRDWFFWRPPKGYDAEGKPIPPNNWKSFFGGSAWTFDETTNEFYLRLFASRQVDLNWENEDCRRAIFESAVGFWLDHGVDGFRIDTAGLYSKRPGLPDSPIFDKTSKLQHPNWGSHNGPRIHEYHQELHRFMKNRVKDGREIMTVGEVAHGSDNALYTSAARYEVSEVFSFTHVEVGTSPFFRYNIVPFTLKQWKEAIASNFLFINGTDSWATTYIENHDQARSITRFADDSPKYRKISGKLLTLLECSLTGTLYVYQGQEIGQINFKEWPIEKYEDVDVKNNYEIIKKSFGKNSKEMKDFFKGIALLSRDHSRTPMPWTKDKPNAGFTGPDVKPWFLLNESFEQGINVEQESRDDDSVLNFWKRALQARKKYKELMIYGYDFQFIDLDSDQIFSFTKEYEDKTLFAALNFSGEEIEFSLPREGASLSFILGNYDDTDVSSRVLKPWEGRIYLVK
WWOX WW1 domain: WW domain-containing oxidoreductase, WW1 domain (WWOX, Homo sapiens, UniProt Q9NZC7)
Sequence of UniProt Q9NZC7 (whole entry, unmodified, looked up): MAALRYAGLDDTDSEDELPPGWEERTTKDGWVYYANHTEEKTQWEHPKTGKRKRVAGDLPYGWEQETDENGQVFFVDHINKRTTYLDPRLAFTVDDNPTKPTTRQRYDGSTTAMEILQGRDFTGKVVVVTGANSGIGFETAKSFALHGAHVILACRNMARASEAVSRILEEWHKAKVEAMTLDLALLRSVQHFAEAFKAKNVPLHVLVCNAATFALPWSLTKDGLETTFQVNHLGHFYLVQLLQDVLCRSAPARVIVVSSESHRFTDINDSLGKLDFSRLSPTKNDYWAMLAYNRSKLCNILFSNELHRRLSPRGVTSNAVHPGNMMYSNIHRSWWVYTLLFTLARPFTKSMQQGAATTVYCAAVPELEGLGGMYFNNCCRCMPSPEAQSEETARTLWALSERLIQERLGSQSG
SCN9A: Sodium channel protein type 9 subunit alpha (SCN9A, Homo sapiens, UniProt Q15858)
Sequence of UniProt Q15858 (whole entry, looked up): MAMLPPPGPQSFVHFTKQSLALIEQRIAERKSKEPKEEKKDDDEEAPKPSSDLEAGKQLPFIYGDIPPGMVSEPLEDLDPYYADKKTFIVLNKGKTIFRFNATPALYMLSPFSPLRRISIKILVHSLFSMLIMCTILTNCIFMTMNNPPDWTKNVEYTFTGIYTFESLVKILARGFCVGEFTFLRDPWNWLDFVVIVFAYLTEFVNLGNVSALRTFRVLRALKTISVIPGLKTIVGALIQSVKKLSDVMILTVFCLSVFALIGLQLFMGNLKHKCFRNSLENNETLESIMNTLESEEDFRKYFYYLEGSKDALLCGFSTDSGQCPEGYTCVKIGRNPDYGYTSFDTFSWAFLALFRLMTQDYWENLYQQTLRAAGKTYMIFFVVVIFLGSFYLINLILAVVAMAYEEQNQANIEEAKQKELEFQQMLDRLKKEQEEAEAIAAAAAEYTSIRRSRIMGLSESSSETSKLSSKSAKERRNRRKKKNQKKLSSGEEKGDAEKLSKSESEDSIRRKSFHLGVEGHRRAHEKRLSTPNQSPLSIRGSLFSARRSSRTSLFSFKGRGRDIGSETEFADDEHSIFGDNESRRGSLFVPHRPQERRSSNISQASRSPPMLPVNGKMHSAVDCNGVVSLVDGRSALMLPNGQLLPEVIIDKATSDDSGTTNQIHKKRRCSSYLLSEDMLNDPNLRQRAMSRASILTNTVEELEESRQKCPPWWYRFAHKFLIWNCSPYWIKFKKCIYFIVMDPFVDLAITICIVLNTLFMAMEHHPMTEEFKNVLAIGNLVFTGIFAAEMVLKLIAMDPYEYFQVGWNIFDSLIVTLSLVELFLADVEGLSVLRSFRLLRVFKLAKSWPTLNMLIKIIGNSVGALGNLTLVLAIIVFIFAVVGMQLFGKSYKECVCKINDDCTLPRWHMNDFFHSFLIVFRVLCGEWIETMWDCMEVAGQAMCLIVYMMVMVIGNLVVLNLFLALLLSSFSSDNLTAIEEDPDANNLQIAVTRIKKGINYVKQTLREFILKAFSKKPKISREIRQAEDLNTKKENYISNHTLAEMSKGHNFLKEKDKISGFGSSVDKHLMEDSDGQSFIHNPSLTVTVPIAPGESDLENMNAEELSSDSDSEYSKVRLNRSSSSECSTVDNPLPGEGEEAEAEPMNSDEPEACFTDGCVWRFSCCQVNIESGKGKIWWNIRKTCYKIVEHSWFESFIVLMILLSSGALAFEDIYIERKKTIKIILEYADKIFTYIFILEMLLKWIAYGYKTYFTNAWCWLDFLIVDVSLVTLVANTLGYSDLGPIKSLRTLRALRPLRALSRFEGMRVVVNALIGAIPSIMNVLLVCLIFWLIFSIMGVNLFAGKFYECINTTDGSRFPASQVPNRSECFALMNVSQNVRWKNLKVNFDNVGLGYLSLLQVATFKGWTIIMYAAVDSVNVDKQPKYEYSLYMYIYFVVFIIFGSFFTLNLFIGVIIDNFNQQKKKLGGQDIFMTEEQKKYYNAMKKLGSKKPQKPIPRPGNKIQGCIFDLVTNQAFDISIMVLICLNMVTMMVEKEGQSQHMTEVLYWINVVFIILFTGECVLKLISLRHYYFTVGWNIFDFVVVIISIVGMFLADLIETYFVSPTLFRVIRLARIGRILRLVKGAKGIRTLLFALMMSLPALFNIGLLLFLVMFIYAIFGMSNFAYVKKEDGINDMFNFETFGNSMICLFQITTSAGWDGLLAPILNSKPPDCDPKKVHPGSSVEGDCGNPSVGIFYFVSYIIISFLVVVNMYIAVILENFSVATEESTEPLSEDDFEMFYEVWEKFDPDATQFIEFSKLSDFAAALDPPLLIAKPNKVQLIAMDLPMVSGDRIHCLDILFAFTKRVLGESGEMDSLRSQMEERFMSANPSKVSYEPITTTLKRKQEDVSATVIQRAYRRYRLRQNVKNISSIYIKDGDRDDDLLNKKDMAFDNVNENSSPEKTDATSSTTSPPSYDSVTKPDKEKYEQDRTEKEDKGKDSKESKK
HBA1 with beta chain: Hemoglobin subunit alpha, with beta chain (HBA1, Homo sapiens, UniProt P69905)
Sequence of UniProt P0DMV8 (whole entry, looked up): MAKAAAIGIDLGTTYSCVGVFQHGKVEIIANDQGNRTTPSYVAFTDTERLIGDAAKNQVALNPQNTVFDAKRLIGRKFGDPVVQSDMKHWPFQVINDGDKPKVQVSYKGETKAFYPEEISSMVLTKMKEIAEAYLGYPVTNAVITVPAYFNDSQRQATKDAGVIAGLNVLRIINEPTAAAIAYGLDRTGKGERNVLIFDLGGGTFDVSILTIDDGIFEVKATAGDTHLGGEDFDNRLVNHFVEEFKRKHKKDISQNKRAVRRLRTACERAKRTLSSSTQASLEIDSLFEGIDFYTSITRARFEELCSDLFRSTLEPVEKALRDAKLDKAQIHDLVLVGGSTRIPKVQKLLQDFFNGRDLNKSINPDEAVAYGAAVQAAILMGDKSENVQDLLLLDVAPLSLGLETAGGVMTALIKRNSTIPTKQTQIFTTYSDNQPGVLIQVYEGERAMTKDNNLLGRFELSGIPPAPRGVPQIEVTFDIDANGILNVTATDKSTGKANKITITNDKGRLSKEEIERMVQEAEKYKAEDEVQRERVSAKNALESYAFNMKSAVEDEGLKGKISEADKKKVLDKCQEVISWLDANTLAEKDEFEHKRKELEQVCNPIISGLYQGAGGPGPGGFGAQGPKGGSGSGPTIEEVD
Sequence of UniProt P69905 (whole entry, looked up): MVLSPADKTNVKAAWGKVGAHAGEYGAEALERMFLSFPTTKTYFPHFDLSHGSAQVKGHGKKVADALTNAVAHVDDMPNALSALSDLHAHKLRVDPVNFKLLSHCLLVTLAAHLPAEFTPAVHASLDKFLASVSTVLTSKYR
Sequence of UniProt O60656 (whole entry, looked up): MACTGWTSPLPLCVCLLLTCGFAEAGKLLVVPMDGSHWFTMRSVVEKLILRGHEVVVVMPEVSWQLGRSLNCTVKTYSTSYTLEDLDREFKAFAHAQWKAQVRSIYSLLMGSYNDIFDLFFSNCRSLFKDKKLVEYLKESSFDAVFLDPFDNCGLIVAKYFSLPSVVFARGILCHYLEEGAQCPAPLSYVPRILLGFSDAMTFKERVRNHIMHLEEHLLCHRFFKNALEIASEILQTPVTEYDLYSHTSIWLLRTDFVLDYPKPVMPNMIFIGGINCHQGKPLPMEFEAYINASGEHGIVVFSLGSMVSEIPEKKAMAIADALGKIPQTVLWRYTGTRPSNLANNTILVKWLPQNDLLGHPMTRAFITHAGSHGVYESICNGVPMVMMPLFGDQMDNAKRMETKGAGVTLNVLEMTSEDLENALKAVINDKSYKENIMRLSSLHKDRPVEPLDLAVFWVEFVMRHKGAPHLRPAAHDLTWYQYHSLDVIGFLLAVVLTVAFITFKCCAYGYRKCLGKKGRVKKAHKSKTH
Sequence of UniProt Q01064 (whole entry, looked up): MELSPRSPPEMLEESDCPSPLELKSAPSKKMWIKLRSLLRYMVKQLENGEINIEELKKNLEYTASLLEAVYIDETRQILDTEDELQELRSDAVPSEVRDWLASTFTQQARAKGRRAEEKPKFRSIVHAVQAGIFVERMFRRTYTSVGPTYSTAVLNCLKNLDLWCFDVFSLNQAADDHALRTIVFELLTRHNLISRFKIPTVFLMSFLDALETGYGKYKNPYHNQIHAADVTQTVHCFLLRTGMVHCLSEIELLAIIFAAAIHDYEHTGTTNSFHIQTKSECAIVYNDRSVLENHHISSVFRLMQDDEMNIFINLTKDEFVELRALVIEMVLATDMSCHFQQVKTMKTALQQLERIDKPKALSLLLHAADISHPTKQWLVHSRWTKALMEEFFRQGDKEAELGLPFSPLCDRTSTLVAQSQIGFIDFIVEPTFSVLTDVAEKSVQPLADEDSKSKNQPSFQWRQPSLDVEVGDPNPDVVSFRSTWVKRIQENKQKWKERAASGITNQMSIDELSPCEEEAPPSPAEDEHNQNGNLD
Sequence of UniProt Q05097 (whole entry, looked up): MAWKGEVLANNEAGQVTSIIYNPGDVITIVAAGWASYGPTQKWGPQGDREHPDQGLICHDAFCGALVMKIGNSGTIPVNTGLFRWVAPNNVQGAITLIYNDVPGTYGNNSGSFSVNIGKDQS

COc1ccc(-c2cc(=O)c3c(O)cc(OC)cc3o2)cc1 — inhibition (MAL12; enzyme activity, inhibitor; 10 µM, added: p-nitrophenyl α-D-glucopyranoside): < 1%
C[C@]12C=CC(=O)C=C1CC[C@@H]1C2=CC[C@]2(C)[C@@H](C(=O)CN3CCN(c4cc(N5CCCC5)nc(N5CCCC5)n4)CC3)CC[C@@H]12.O=C(O)/C=C\C(=O)O — maximal response (Nuclear receptor ROR-alpha (RORA, Homo sapiens, UniProt P35398); AlphaScreen; relative to: 25 µM 7α-hydroxycholesterol): 109%
CCC/C=C\C=O — remaining 1-NPN fluorescence (chemosensory protein 3 (Chilo suppressalis, UniProt V9PY40); binding, competitive ligand, fluorescence competitive binding; highest concentration tested, pH 7.4, protein 2 µM, added: 1-NPN 2 µM; relative to: no ligand): 62.4 ± 3.81%
CC(C)C[C@H](NC(=O)[C@H](C)NC(=O)[C@@H](N)[C@@H](C)O)C(=O)N1CCC[C@H]1C(=O)N1CCC[C@H]1C(=O)N1CCC[C@H]1C(=O)N1CCC[C@H]1C(=O)N[C@@H](Cc1ccc(O)cc1)C(=O)N[C@@H](CCCNC(=N)N)C(=O)N[C@@H](Cc1c[nH]cn1)C(=O)N[C@@H](CCCNC(=N)N)C(=O)N[C@@H](CC(N)=O)C(=O)O — binding enthalpy ΔH (WWOX WW1 domain; binding to WW1 domain, isothermal titration calorimetry; concentration not given, pH 7.0, 25 °C): -3.67 ± 0.23 kcal/mol
COC(=O)c1scc(C)c1NC(=O)C(C)N(CCO)CCO (stereo not drawn) — capacity factor k′ (SCN9A; cell membrane chromatography; higher = stronger binding): 0
CCCOCc1ccc(C=O)o1 — peak modification (HBA1 with beta chain; item: haemoglobin A adduct; human normal whole blood; 2 mM, 24 h, hematocrit 30%): 25.4%
CC(=O)N[C@H](Cc1ccc(I)cc1)C(=O)N[C@H](Cc1ccc2ccccc2c1)C(=O)N[C@H](Cc1ccc2ccccc2c1)C(=O)N[C@H](CCCCN)C(N)=O — Emax (Melanocyte-stimulating hormone receptor (Mc1r, Mus musculus, UniProt Q01727); cAMP, agonist, AlphaScreen; HEK293): 35%
COc1cc2c(=O)c(OC)c(-c3ccccc3)oc2c(O)c1OC — inhibition (MAL12; enzyme activity, inhibitor, absorbance; 10 µM): 8.2%
CC1=C(C(=O)OCc2ccccc2)C(c2ccc(-c3ccccc3)cc2)NC(=S)N1Cc1ccc(-c2nnn[nH]2)cc1 (stereo not drawn) — fold change in activity (Heat shock 70 kDa protein 1A, with Hdj2 (HSPA1A, Homo sapiens, UniProt P0DMV8); ATPase activity, inhibitor; 100 µM, Hsp40-stimulated activity, added: Hdj2 Hsp70:Hsp40 1:0.5; relative to: DMSO, negative means inhibition): -4.5 fold
CSCC[C@H](NC(=O)[C@@H]1CCCN1C(=O)[C@@H](NC(=O)[C@H](Cc1ccc(O)cc1)NC(=O)[C@H](C)NC(=O)[C@@H]1CCCN1C(=O)[C@@H]1CCCN1C(=O)[C@@H]1CCCN1C(=O)[C@H](CO)NC(=O)[C@H](Cc1c[nH]cn1)NC(=O)CN)[C@@H](C)O)C(=O)N[C@@H](CO)C(=O)O — ΔG (WWOX WW1 domain; binding, ITC; pH 7.0, 25 °C): -4.7 ± 0.07 kcal/mol
COc1ccc(OCC2c3cc(OC)c(OC)cc3CCN2C(=O)c2cccc(Cl)c2)cc1 (stereo not drawn) — channel opening frequency (Glutamate receptor ionotropic, NMDA 2D, with NR1 (Rattus norvegicus, UniProt Q62645); outside-out patch clamp; 10 µM, added: GluN1 co-expressed; relative to: no compound): 148 ± 17%
KKLTVWI — remaining aggregation (Alpha-synuclein (SNCA, Homo sapiens, UniProt P37840); fibril formation, thioflavin T fluorescence; peptide; 2 molar equivalents, 16 h, 37 °C, 1.5 % HFIP, added: α-synuclein 100 µM; relative to: untreated): 61 ± 7%
CCCCC/C=C\C/C=C\CCCCCCCC(=O)O — acyl loading of EcdA-M1 (Fatty-acyl-AMP ligase ecdI (ecdI, Aspergillus rugulosus, UniProt K0E2F3); substrate; ~40 µM, 30 min, pH 7.0, ambient, added: holo-EcdA-M1 10 µM, ATP 5 mM): ~30%
AMFKNNYPSL — MFI increase (H-2 class I histocompatibility antigen, K-B alpha chain, 26 (H2-K1, Mus musculus, UniProt P01901); H2-K binding, flow cytometry; peptide, RMA-S; 10 µg per 100 µL, 3 h): 72.7%
N[C@@H](CCC(=O)Nc1ccc(F)cc1)C(=O)O — [3H]-L-serine uptake (Neutral amino acid transporter B(0) (SLC1A5, Homo sapiens, UniProt Q15758); PC-3; concentration not given, 5 min, 37 °C, added: [3H]-L-serine 150 µM; relative to: basal uptake): 93 ± 1%
CC(C)C[C@H](NC(=O)[C@@H](NC(=O)[C@@H](N)[C@@H](C)O)C(C)C)C(=O)N1CCC[C@H]1C(=O)N1CCC[C@H]1C(=O)N1CCC[C@H]1C(=O)N1CCC[C@H]1C(=O)N[C@@H](Cc1ccc(O)cc1)C(=O)N[C@@H](CCCNC(=N)N)C(=O)N[C@@H](Cc1c[nH]cn1)C(=O)N[C@@H](CCCNC(=N)N)C(=O)N[C@@H](CC(N)=O)C(=O)O — ΔG (WW domain-containing oxidoreductase, WW2 domain Y85W (WWOX, Homo sapiens, UniProt Q9NZC7, Y85W); binding, ITC; pH 7.0, 25 °C): -5.83 ± 0.09 kcal/mol
COc1cc(-c2cc(=O)c3ccc(O)c(OC)c3o2)cc(O)c1OC — inhibition (MAL12; enzyme activity, inhibitor, absorbance; 100 µM): 98.7%
O=C1c2c(O)cc(O)cc2O[C@H](c2cc(O)c(O)c(O)c2)[C@H]1O — lowest inhibitory concentration (GABA-A receptor benzodiazepine site (rat); [3H]flunitrazepam binding, inhibitor; rat cortex membranes): 0.3 µM
CC/C=C/[C@H](CC)C/C(=C/[C@@]1(CC)C[C@H](CC)[C@H](CC(=O)O)OO1)CC — remaining binding (Neuropeptide Y receptor type 1 (NPY1R, Homo sapiens, UniProt P25929); ligand displacement, radioligand; 100 µg/mL, 30 min): 78%
Clc1cccc(Nc2nnc(-c3ccccc3)c3ccccc23)c1 — IC50 (Dual specificity calcium/calmodulin-dependent 3',5'-cyclic nucleotide phosphodiesterase 1B (Homo sapiens, UniProt Q01064); cAMP hydrolysis, inhibitor, fluorescence polarization; recombinant enzyme; up to 100 µM, 30 min preincubation, 30 °C, added: fluorescein-cAMP 25 nM): inactive
COc1c(-c2ccc(O)cc2)oc2c(OC)c(O)cc(O)c2c1=O — inhibition (MAL12; enzyme activity, inhibitor, absorbance; 5 µM): 62.1%
Ac-RRWRDGIKIYNLLF-NH2 (N-acetyl, C-amide) — phosphorylation (Dual specificity mitogen-activated protein kinase kinase 6 (MAP2K6, Homo sapiens, UniProt P52564, S207E/T211E); substrate, HPLC and MALDI-TOF MS; peptide; 100 to 500 µM, 40 h, pH 7.5, room temperature, added: ATP 1 mM): not detected
COC(=O)c1scc(C)c1NC(=O)C(C)N1CCN(c2ccccc2)CC1 (stereo not drawn) — capacity factor k′ (SCN9A; cell membrane chromatography; higher = stronger binding): 29.2
CC[C@H](C)[C@H](NC(=O)[C@H](CCC(=O)O)NC(=O)[C@@H]1CCCN1C(=O)[C@H](CCCNC(=N)N)NC(C)=O)C(=O)N[C@@H](Cc1c[nH]c2ccccc12)C(=O)N[C@@H](Cc1ccc(O)cc1)C(=O)N[C@@H](C)C(=O)N[C@@H](CCC(N)=O)C(=O)NCC(=O)N[C@@H](CC(C)C)C(=O)N[C@@H](CCCCN)C(=O)N[C@@H](CCCNC(=N)N)C(=O)N[C@@H](Cc1ccccc1)C(=O)NCC(=O)N[C@@H](CC(=O)O)C(=O)N[C@@H](CCC(=O)O)C(=O)N[C@@H](Cc1ccccc1)C(=O)N[C@@H](CC(N)=O)C(=O)N[C@@H](C)C(=O)N[C@@H](Cc1ccc(O)cc1)C(=O)N[C@@H](Cc1ccc(O)cc1)C(=O)N[C@@H](C)C(=O)N[C@@H](CCCNC(=N)N)C(N)=O — highest concentration without competition (human Bfl-1 (residues 1-151); binding, fluorescence polarization competition; 50 nM protein, added: 10 nM fluorescein Bim-BH3; no competition up to this value): > 10 µM
CC(=O)N[C@@H](Cc1ccccc1)C(=O)N[C@H](Cc1ccc(-c2ccccc2)cc1)C(=O)N[C@@H](CCCNC(=N)N)C(=O)N[C@@H](Cc1c[nH]c2ccccc12)C(N)=O — agonist and antagonist activity (Melanocortin receptor 3 (Mus musculus, UniProt P33033); receptor activity, agonist, cell-based; up to 100 µM, Schild antagonism analysis): inactive
CCCNC(C)C(=O)Nc1c(C)csc1C(=O)OCC (stereo not drawn) — capacity factor k′ (SCN9A; cell membrane chromatography; higher = stronger binding): 52.8
O=C(O)c1ccc2c(c1)OCCO2 — UV signal reduction (PY04617 (Plasmodium yoelii, UniProt Q7RFT5); ultrafiltration HPLC-UV; 0.1 mM, pH 7.25, 4 °C, 6.5% DMSO, added: methionine competitor): 51.8 ± 2.8%
NCCOB(c1ccccc1)c1ccccc1 — EC50 ratio (Transient receptor potential cation channel subfamily V member 3 (Trpv3, Mus musculus, UniProt Q8K424); agonist, Fluo-4 calcium; HEK293 transfected; relative to: pH 7.4 over pH 5.6): ~15 fold
COC(=O)c1scc(C)c1NC(=O)C(C)N1CCN(C(C)(C)C)CC1 (stereo not drawn) — capacity factor k′ (SCN9A; cell membrane chromatography; higher = stronger binding): 0.2
COc1ccc(CNC(=O)c2cccc(N3C(=O)c4ccccc4C3=O)c2)cc1 — AC50 (D(2) dopamine receptor (DRD2, Homo sapiens, UniProt P14416); calcium mobilization, antagonist; HEK293 T-REx D2 Gqi5; up to 77 µM): inactive
DDLKQKACESRCTKL — patients with IgE binding (human IgE; peptide microarray; peptide, peanut/walnut-allergic patient sera; concentration not given, 16 h, 4 °C): 0%
CC(C)C[C@H](NC(=O)[C@@H](NC(=O)[C@@H](N)[C@@H](C)O)C(C)C)C(=O)N1CCC[C@H]1C(=O)N1CCC[C@H]1C(=O)N1CCC[C@H]1C(=O)N1CCC[C@H]1C(=O)N[C@@H](Cc1ccc(O)cc1)C(=O)N[C@@H](C)C(=O)N[C@@H](Cc1c[nH]cn1)C(=O)N[C@@H](CCCNC(=N)N)C(=O)N[C@@H](CC(N)=O)C(=O)O — binding enthalpy ΔH (WWOX WW1 domain; binding to WW1 domain, isothermal titration calorimetry; concentration not given, pH 7.0, 25 °C): -4.02 ± 0.24 kcal/mol
UGT1A9 (Homo sapiens, UniProt O60656) — Vmax (O=c1cc(-c2cccc(O)c2)oc2cc(O)ccc12; steady-state kinetics; pH 7.4, 37 °C): 0.0162 µmol/min/mg
flavin mononucleotide — Ki (Isopentenyl-diphosphate delta-isomerase (fni, Streptococcus pneumoniae serotype 4, UniProt Q97SH8); substrate; pH 7.0, 37 °C, substrate inhibition, added: 150 µM IPP and NADPH): 6.4 ± 1 µM
CCOCc1ccc(C=O)o1 — peak modification (HBA1 with beta chain; item: haemoglobin A adduct; human normal whole blood; 2 mM, 24 h, hematocrit 30%): 27.9%
O=c1cc(-c2ccccc2)oc2cc(O)ccc12 — inhibition (MAL12; enzyme activity, inhibitor, absorbance; 100 µM): 7.2%
CSc1ccc(/C=C2/C(C)=C(CC(=O)O)c3cc(F)ccc32)cc1 — IC50 (cGMP-dependent 3',5'-cyclic phosphodiesterase (PDE2A, Homo sapiens, UniProt O00408); cAMP hydrolysis, inhibitor, IMAP fluorescence polarization; up to 200 µM): inactive
C[N+](C)(C)C[C@@H](O)CC(=O)[O-] — inhibition (Organic cation/carnitine transporter 2 (SLC22A5, Homo sapiens, UniProt O76082); transporter uptake, inhibitor; 2.5 µM): 15.8%
CC[C@H](C)[C@H](NC(=O)[C@@H]1CCCN1C(=O)[C@@H]1CCCN1C(=O)[C@@H]1CCCN1C(=O)[C@@H](NC(=O)[C@H](CC(N)=O)NC(=O)[C@@H](N)Cc1ccccc1)[C@@H](C)CC)C(=O)N[C@@H](Cc1ccc(O)cc1)C(=O)N[C@H](C(=O)N[C@@H](CO)C(=O)N[C@@H](CCCNC(=N)N)C(=O)N[C@@H](C)C(=O)O)[C@@H](C)O — ΔG (WW domain-containing oxidoreductase, WW1-WW2 tandem domains (WWOX, Homo sapiens, UniProt Q9NZC7); binding, ITC; pH 7.0, 25 °C): -5.15 ± 0.04 kcal/mol
O=C[C@H](O)[C@@H](O)[C@@H](O)[C@H](O)CO — MIC (PA-I galactophilic lectin (lecA, Pseudomonas aeruginosa, UniProt Q05097); hemagglutination, inhibitor; rabbit erythrocytes; 30 min, 4 °C): 3.12 mM (≈ 563 µg/mL)
CC1=C(C(=O)OCc2ccccc2)C(c2ccc(-c3ccccc3)cc2)NC(=O)N1CCCCCc1nnn[nH]1 (stereo not drawn) — fold change in activity (Heat shock 70 kDa protein 1A (HSPA1A, Homo sapiens, UniProt P0DMV8); ATPase activity, inhibitor; 100 µM, without Hsp40; relative to: DMSO, negative means inhibition): -1.2 fold
O=C(N[C@H]1CNC1=O)c1ccc(-c2ccccc2)cc1 — IC50 (N-acylethanolamine-hydrolyzing acid amidase (NAAA, Homo sapiens, UniProt Q02083); enzyme activity, inhibitor, fluorogenic PAMCA hydrolysis; pH 4.5, added: 5 µM PAMCA): inactive

Repeated from above:
UGT1A9 (Homo sapiens, UniProt O60656) — Vmax (O=c1cc(-c2cccc(O)c2)oc2cc(O)ccc12; steady-state kinetics; pH 7.4, 37 °C): 0.0162 µmol/min/mg
flavin mononucleotide — Ki (Isopentenyl-diphosphate delta-isomerase (fni, Streptococcus pneumoniae serotype 4, UniProt Q97SH8); substrate; pH 7.0, 37 °C, substrate inhibition, added: 150 µM IPP and NADPH): 6.4 ± 1 µM
CCOCc1ccc(C=O)o1 — peak modification (HBA1 with beta chain; item: haemoglobin A adduct; human normal whole blood; 2 mM, 24 h, hematocrit 30%): 27.9%
O=c1cc(-c2ccccc2)oc2cc(O)ccc12 — inhibition (MAL12; enzyme activity, inhibitor, absorbance; 100 µM): 7.2%
